Measured values gathered from unrelated publications.
Protocols differ between the studies behind these lines.
CTSL: Procathepsin L (CTSL, Homo sapiens, UniProt P07711)
UniProt P07711, sequence (whole entry, looked up): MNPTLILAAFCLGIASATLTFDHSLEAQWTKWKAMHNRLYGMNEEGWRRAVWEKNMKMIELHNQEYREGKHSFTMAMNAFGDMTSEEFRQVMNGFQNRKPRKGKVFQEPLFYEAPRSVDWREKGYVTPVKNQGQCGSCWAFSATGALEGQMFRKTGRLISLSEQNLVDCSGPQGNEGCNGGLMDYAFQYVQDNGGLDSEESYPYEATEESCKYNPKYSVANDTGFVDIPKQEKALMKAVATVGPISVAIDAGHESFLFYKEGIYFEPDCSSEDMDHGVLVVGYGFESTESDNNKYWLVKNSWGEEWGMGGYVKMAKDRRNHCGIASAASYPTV
DRD3: D(3) dopamine receptor (DRD3, Homo sapiens, UniProt P35462)
UniProt P35462, sequence (whole entry, looked up): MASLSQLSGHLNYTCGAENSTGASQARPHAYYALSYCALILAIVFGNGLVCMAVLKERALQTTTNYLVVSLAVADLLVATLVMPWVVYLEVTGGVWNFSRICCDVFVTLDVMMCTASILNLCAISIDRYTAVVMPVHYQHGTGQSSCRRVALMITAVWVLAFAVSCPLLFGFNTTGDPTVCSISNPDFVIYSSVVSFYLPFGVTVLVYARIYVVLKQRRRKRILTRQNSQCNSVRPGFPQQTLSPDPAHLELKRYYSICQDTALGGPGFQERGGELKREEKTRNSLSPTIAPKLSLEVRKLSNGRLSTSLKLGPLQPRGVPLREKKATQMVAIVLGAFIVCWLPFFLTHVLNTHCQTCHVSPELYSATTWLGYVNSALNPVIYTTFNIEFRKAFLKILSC
UniProt P00519, sequence (whole entry, unmodified, looked up): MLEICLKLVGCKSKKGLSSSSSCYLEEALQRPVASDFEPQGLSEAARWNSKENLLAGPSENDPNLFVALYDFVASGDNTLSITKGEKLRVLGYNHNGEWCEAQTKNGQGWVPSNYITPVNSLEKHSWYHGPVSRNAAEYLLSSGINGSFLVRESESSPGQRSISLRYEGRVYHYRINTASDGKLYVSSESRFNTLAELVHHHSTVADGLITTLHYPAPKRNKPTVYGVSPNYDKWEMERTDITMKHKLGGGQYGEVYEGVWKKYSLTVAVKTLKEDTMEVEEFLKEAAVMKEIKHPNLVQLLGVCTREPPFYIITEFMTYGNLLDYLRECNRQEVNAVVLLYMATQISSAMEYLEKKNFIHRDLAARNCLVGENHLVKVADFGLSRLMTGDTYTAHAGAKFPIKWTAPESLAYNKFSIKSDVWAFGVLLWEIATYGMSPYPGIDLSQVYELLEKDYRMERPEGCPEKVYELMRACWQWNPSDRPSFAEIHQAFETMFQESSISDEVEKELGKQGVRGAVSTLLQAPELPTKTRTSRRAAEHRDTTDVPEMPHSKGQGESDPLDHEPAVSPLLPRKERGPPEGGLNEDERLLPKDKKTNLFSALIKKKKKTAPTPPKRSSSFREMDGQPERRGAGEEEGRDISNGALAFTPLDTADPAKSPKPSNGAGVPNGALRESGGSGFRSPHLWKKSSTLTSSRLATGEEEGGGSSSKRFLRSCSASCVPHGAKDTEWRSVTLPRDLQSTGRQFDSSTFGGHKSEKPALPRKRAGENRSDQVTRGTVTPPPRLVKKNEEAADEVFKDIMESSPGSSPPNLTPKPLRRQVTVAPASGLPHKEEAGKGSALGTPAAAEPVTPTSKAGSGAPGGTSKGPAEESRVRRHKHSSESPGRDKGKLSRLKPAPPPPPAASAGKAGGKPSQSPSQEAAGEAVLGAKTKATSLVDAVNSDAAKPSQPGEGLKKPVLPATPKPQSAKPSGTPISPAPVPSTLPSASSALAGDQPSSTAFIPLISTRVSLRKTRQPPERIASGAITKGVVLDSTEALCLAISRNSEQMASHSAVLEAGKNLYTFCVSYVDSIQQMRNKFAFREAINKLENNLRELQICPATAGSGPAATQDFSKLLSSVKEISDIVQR
UniProt O75582, sequence (whole entry, looked up): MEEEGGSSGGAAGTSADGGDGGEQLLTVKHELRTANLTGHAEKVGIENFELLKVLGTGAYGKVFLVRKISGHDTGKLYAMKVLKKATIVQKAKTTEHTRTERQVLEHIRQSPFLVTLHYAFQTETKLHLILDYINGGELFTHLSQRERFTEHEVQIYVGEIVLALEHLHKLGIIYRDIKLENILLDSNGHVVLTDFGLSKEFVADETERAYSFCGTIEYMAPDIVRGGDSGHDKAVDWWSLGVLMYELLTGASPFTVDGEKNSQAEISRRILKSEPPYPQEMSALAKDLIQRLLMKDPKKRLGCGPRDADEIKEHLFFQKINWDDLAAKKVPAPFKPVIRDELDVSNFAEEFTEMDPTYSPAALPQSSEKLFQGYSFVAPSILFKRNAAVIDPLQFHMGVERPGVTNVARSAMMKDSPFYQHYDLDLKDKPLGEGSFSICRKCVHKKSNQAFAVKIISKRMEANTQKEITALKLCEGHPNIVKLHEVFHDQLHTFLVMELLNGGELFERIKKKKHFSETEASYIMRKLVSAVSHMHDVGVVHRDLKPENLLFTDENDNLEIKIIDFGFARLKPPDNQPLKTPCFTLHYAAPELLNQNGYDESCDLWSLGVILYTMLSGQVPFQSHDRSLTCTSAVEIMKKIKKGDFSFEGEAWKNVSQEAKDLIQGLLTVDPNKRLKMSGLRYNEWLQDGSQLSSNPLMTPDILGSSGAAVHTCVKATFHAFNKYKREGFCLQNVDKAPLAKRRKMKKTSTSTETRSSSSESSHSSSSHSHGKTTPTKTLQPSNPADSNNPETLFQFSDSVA
UniProt P08069, sequence (whole entry, looked up): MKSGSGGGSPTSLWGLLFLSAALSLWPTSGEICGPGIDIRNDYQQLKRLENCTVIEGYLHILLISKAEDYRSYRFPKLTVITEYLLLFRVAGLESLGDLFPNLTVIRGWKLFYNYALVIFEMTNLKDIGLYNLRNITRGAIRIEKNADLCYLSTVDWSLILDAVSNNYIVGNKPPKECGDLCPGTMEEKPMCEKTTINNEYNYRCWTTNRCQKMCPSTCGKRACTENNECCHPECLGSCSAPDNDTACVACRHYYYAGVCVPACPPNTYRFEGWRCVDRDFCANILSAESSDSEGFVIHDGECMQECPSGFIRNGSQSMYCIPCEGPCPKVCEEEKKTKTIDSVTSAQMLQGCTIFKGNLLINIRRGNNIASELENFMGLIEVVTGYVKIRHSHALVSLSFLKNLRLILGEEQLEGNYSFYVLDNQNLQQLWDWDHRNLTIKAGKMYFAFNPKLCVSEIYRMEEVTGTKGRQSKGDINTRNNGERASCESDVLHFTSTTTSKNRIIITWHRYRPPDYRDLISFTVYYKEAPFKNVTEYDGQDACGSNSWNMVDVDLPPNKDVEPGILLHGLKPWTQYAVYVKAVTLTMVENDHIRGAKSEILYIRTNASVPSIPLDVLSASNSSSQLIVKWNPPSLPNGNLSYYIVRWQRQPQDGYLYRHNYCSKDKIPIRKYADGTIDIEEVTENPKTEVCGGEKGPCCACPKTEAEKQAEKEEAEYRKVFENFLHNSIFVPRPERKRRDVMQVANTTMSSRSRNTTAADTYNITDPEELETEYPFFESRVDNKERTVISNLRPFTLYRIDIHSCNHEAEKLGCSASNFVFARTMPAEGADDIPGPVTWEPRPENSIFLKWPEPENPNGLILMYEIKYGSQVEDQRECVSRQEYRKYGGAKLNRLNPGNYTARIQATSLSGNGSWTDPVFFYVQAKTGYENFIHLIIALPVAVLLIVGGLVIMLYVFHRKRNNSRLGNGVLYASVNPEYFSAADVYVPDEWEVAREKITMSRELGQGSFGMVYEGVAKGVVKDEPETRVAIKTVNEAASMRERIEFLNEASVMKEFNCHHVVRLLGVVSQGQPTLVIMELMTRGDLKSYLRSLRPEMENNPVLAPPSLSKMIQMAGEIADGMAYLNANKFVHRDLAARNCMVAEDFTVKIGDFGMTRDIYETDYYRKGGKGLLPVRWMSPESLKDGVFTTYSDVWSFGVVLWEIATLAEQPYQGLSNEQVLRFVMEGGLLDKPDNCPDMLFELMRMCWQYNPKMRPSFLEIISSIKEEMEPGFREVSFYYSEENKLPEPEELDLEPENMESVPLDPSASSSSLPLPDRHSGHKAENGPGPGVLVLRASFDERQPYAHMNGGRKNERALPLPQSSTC
UniProt Q9H3Y6, sequence (whole entry, looked up): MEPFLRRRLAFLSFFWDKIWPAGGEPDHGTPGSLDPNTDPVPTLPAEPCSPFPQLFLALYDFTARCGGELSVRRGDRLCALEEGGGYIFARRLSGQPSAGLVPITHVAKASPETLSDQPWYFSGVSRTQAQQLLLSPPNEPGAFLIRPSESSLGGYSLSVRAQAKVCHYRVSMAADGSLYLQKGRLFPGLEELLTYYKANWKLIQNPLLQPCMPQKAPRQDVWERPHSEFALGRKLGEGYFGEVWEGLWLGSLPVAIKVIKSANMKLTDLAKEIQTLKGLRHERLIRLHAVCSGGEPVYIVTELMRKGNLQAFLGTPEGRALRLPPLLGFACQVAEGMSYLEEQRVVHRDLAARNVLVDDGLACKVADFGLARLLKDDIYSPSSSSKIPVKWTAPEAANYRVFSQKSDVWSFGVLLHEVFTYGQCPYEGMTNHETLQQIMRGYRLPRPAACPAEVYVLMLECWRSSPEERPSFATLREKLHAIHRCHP
UniProt P49840, sequence (whole entry, looked up): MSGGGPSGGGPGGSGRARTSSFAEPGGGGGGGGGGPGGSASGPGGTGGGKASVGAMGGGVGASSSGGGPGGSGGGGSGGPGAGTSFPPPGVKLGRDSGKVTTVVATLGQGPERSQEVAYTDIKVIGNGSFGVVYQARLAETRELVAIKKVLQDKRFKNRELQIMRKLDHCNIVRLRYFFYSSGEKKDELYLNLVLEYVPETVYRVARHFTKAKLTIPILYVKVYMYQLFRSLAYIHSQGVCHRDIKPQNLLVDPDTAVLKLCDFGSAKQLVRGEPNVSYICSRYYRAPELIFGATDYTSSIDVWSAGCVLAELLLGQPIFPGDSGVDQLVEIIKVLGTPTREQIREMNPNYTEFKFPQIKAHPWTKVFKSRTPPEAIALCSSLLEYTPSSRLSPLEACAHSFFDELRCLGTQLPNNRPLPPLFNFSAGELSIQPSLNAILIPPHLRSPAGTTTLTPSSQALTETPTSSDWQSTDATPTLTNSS

SMILES	target	test	conditions	endpoint	result
Nc1ncnc2occ(-c3ccc(NC(=O)Nc4cc(C(F)(F)F)ccc4F)cc3)c12	Tyrosine-protein kinase ABL1, non-phosphorylated (ABL1, Homo sapiens, UniProt P00519, F317L)	cell-free assay, inhibitor	20 µM	remaining signal	18%
CC(C)=CCc1c(O)ccc(C(=O)/C=C/c2ccc(O)cc2)c1O	CTSL	enzyme activity, inhibitor	100 µM	remaining activity	50.2%
CC(=O)Nc1ccc(S(=O)(=O)N2CCN(CC(O)COc3ccc4ccccc4c3)CC2)cc1 (centres unmarked)	Fibroblast growth factor 14 (Homo sapiens, UniProt Q92915)	binding, SPR	–	koff	0.0191 s⁻¹
Cc1[nH]c(C)c(S(=O)(=O)Nc2cc(Cl)c(C(F)(F)F)cc2Br)c1C(=O)N1CCC(F)(F)C1	DRD3	β-arrestin recruitment, agonist	90 min	Emax	94%
O=C1c2ccccc2-n2c1nc1ccccc1c2=O	CTSL	enzyme activity, inhibitor	100 µM	remaining activity	46.6%
COc1cc(-c2cncc3c2CN(C)Cc2cc(N4CCNCC4)ccc2-3)cc(OC)c1OC	SRMS (Homo sapiens, UniProt Q9H3Y6)	enzyme activity, inhibitor	1 µM	remaining activity	117%
Cc1[nH]c(C)c(S(=O)(=O)Nc2ccc(C(F)(F)F)c(Cl)c2)c1C(=O)N1CC[C@@H](F)C1	DRD3	β-arrestin recruitment, agonist	90 min	Emax	97%
CCCCC(=O)Nc1ccc(-c2ccc3ncn(CCC)c(=O)c3c2)cn1	TLK1 (Homo sapiens, UniProt Q9UKI8)	binding, competition with immobilised ligand	0.5 µM	remaining binding	90%
CNc1ncc2c(/C=C/C(=O)N3CCC(OC)CC3)nn(Cc3cccc(C(F)(F)F)c3)c2n1	GSK3A (Homo sapiens, UniProt P49840)	enzyme activity, inhibitor, radiometric	1 µM	remaining activity	106%
C1=C/COCc2cc(ccc2OCCN2CCCC2)Nc2nccc(n2)-c2cccc(c2)COC/1	Non-receptor tyrosine-protein kinase TYK2, JH2 (TYK2, Homo sapiens, UniProt P29597)	cell-free assay	0.1 µM	remaining signal	2.2%
COc1ccc(C(=O)C=Cc2ccccc2)cc1	CTSL	enzyme activity, inhibitor	100 µM	remaining activity	101%
Cc1cc([C@@H](C)Nc2ccccc2C(=O)O)c2nc(N3CCC(F)(F)CC3)c(C#N)c(=O)n2c1	IGF1R (Homo sapiens, UniProt P08069)	binding, competition with immobilised ligand	1 µM	remaining binding	100%
O=C(/C=C/c1ccc(O)cc1)c1ccc(O)cc1O	CTSL	enzyme activity, inhibitor	100 µM	remaining activity	61.5%
C=CC(=O)N1CCC(COCC(=O)N2CCN(c3nc(-c4cnc(N)nc4C(F)F)nc(N4CCOC[C@@H]4C)n3)CC2)CC1	Ribosomal protein S6 kinase alpha-5, N-terminal kinase domain (RPS6KA5, Homo sapiens, UniProt O75582)	binding, competition with immobilised ligand	1 µM	remaining binding	100%
